Measurements gathered from unrelated publications.
Each numbered part is a random draw from the data of one study; scales do not carry over between parts.

Block 1
Target: Interferon regulatory factor 5, full length, phosphomimetic (IRF5, Homo sapiens, UniProt Q13568-2, residues 1-514, S451D/S453D/S456D/S462D)
Method: protein-binding microarray
Molecule type: double-stranded DNA, one strand shown
Medium: in vitro
Concentration: 940 nM top
Notes: 60-bp whole probe
Together with: salmon DNA 0.4 mg/ml
Baseline: random background probes
Direction: higher = stronger binding
All sequences stand within: GCCTAGCAC … GTCTTGATTCGCTTGACGCTGCTG
| Strand | fitted relative affinity [z-score] |
| --- | --- |
| GACGGTATCGAGTATCGGGACGTGCTA | 4.66 |
| TCACGAGTCCCTATCTCACTGTGCTAG | 0.136 |
| GACGGTTTCCTACTGCTGAAGTGCTAG | 0.906 |
| GACGGTATCCTTAGCCTGACGTGCTAG | 0.24 |
| TTAGGTGTCGACTATCGGTTAGTGCTA | 0.386 |
| TTAGTTTTCGACTATCGGTTAGTGCTA | 2.67 |
| TTAGGTTTCGGACTAGGTTAGTGCTAG | 7.86 |
| TGAGATCTCAGTCTCGATTAGTGCTAG | 3.24 |

Block 2
Target: Histone acetyltransferase KAT6A, winged helix 2, GST fusion (KAT6A, Homo sapiens, UniProt Q92794, residues 85-181)
Method: protein binding microarray
Molecule type: double-stranded DNA, one strand shown
Medium: in vitro
Concentration: not given
Notes: 8-mer, flanks averaged, mean of 2 arrays, mostly near background
Baseline: not given
Direction: higher = stronger binding
Construct (chain): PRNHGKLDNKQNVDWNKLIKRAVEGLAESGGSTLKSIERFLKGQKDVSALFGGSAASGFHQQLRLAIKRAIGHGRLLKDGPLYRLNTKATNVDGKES
| Strand | E-score |
| --- | --- |
| CATAATAG | -0.112 |
| AACGACCA | -0.0281 |
| GCACTGTA | 0.0926 |
| CCGGTTGA | 0.107 |
| AGTACCTC | -0.143 |
| TCCTAGAA | -0.119 |
| GGGTCCAC | 0.0265 |
| AAGTATCT | -0.0753 |

Block 3
Target: Replicase polyprotein 1ab, polymerase (rep, Severe acute respiratory syndrome coronavirus 2, UniProt P0DTD1)
Observed: enzyme activity
Mode: inhibitor
Concentration: 20 µM
| SMILES | inhibition |
| --- | --- |
| CC(=O)c1cc([N+](=O)[O-])c(Sc2cccc(Cl)c2Cl)s1 | -2.9% |
| C=CCOC(Cn1ccnc1)c1ccc(Cl)cc1Cl (stereo not shown) | -5.51% |
| CO[C@@H]1[C@@H](O[C@@H]2O[C@H](C)[C@@H](O[C@H]3C[C@@](C)(O)[C@@H](OC(=O)CC(C)C)[C@H](C)O3)[C@H](N(C)C)[C@H]2O)[C@@H](CC=O)C[C@@H](C)[C@@H](O)/C=C/C=C/C[C@@H](C)OC(=O)C[C@H]1OC(C)=O | 0.64% |
| O=C(O)c1ccccc1C(=O)Nc1ccc(-c2ccccc2)cc1 | 3.8% |
| CCNC(=O)NS(=O)(=O)c1sc(CC(C)C)cc1-c1ccc(Cn2c(-c3ccccc3)nc(OC)c2C=O)cc1 | 2.92% |
| CCC(=O)c1ccc(O)cc1 | -0.27% |
| O=C1OC(CN2CCOCC2)CN1/N=C/c1ccc([N+](=O)[O-])o1 (stereo not shown) | -2.09% |
| CCc1cn([C@H]2C[C@H](O)[C@@H](CO)O2)c(=O)[nH]c1=O | -1.39% |
| CCCN[C@@H]1CCc2c(OC)cccc2[C@@H]1C | 1% |
| NC(N)=NCCC[C@H](NC(=O)c1sccc1NS(=O)(=O)c1cccc2nsnc12)C(=O)O | 4.27% |
| CCCCCCCCCCCC[N+](C)(C)CCOc1ccccc1 | 13% |
| Cc1cnc(CNC(=O)c2c(=O)c3ccc(N4CCCN(C)CC4)nc3n3c2sc2ccccc23)cn1 | 3.03% |
| CC#CCC(C)[C@H](O)/C=C/[C@@H]1[C@H]2C/C(=C/CCCC(=O)O)C[C@H]2C[C@H]1O (stereo partly shown) | -4.53% |
| C[C@@H](O)[C@H]1C(=O)N2C(C(=O)[O-])=C(SC3Cn4cnc[n+]4C3)[C@H](C)[C@H]12 (stereo partly shown) | -2.51% |
| Cc1ccsc1/C=C/C1=NCCCN1C | -0.05% |
| Cc1ccc(=O)n(-c2ccccc2)c1 | -11.2% |
| O=C(COc1ccc(C(=O)c2ccccc2)cc1)NC1CCN(Cc2ccccc2)CC1 | -4.47% |
| CC(C)C[C@@H]1NC(=O)[C@@H](C(C)C)NC(=O)[C@@H]2CCCN2C(=O)[C@@H](CC(=O)O)NC(=O)[C@@H](Cc2c[nH]c3ccccc23)NC1=O | -1.65% |
| CCC(=N\O)/C(C)=C/c1ccc(F)cc1 | -1.49% |
| Nc1ncnc2c1c(-c1cnc3[nH]ccc3c1)nn2C1CCCC1 | 2.38% |

Single results of other studies
Target: Replicase polyprotein 1ab, main protease (rep, Severe acute respiratory syndrome coronavirus 2, UniProt P0DTD1)
Observed: enzyme activity
Mode: inhibitor
| Compound | concentration | notes | quantity | result |
| --- | --- | --- | --- | --- |
| CN(C)S(=O)(=O)c1cccc(-n2sc3ccccc3c2=O)c1 | 20 µM | primary screen | inhibition | 101% |
| CC(C)Cc1sc(N)nc1-c1ccc(P(=O)(O)O)o1 | 20 µM | primary screen | inhibition | 27.2% |
| O=C(NC(=S)N1CCCc2ccccc21)c1ccccc1 |  |  | IC50 | > 20 µM |
| C=C1c2cccc(O)c2C(=O)C2C(=O)[C@]3(O)C(=O)C(C(N)=O)C(=O)[C@@H](N(C)C)[C@@H]3[C@@H](O)[C@H]12 (stereo partly shown) | 20 µM | with DTT | inhibition | 10.3% |

Some of these lines once more (block 1):
| Strand | fitted relative affinity [z-score] |
| --- | --- |
| TCACGAGTCCCTATCTCACTGTGCTAG | 0.136 |
| GACGGTTTCCTACTGCTGAAGTGCTAG | 0.906 |
| GACGGTATCCTTAGCCTGACGTGCTAG | 0.24 |
| TTAGGTGTCGACTATCGGTTAGTGCTA | 0.386 |
| TTAGTTTTCGACTATCGGTTAGTGCTA | 2.67 |
| TTAGGTTTCGGACTAGGTTAGTGCTAG | 7.86 |
| TGAGATCTCAGTCTCGATTAGTGCTAG | 3.24 |
